Experimental data from different studies.
Numbered parts are unrelated; each lists some results of a single study.
Sequence of UniProt Q16566 (whole entry, looked up): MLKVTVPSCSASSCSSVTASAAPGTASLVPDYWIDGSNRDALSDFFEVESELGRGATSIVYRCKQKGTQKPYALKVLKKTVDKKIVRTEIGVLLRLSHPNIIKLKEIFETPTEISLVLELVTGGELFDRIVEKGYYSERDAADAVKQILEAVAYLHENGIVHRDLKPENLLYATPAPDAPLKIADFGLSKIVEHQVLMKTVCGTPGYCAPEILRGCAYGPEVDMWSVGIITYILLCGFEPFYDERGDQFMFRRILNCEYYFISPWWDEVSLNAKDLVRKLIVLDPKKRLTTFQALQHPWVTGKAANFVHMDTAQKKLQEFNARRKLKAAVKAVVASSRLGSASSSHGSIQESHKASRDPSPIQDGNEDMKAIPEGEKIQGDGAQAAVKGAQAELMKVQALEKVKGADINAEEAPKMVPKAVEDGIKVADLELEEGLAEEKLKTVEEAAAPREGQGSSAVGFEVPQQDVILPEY
Sequence of UniProt Q9HAZ1 (whole entry, looked up): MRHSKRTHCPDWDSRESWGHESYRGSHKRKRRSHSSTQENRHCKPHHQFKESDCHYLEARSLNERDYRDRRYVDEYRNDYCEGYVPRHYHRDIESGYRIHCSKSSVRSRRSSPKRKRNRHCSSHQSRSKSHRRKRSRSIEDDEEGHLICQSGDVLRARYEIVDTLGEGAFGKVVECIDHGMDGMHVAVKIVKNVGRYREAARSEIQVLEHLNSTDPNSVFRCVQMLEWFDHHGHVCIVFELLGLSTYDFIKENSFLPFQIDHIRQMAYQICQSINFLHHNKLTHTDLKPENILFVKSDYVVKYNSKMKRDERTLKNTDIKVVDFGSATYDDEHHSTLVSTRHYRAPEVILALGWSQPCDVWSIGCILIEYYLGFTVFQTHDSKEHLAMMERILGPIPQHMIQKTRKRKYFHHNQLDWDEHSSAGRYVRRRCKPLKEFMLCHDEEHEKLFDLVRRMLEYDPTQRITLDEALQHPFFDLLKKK
Sequence of UniProt P25100 (whole entry, looked up): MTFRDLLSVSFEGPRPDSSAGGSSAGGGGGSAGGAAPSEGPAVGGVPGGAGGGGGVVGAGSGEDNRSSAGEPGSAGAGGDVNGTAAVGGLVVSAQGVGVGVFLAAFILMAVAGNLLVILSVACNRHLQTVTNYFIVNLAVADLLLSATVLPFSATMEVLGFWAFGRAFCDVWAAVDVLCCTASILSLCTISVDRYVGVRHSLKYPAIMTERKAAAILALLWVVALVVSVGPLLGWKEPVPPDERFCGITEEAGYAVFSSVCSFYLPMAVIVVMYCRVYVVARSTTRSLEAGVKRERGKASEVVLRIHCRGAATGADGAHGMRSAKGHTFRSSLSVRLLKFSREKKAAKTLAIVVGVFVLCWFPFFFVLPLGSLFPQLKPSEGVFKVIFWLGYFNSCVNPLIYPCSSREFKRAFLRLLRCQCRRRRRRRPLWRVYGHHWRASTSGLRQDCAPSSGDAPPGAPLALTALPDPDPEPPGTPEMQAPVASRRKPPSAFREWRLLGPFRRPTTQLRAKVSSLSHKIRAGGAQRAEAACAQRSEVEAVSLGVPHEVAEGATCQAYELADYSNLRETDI
Sequence of UniProt P08912 (whole entry, looked up): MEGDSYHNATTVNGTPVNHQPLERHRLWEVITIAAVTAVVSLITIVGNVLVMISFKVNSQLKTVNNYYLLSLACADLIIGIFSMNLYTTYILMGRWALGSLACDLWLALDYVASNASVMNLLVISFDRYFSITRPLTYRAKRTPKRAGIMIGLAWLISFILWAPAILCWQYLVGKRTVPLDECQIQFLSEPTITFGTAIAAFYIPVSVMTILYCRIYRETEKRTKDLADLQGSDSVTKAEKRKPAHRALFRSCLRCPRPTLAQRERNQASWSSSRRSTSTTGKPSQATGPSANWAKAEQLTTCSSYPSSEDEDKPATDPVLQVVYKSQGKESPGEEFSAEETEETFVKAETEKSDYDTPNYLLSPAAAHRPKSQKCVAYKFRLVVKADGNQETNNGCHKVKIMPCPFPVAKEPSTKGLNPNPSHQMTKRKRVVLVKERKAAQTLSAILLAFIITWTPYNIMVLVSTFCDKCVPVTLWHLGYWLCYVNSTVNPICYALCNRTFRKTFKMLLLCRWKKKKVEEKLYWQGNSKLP
Sequence of UniProt Q96L34 (whole entry, looked up): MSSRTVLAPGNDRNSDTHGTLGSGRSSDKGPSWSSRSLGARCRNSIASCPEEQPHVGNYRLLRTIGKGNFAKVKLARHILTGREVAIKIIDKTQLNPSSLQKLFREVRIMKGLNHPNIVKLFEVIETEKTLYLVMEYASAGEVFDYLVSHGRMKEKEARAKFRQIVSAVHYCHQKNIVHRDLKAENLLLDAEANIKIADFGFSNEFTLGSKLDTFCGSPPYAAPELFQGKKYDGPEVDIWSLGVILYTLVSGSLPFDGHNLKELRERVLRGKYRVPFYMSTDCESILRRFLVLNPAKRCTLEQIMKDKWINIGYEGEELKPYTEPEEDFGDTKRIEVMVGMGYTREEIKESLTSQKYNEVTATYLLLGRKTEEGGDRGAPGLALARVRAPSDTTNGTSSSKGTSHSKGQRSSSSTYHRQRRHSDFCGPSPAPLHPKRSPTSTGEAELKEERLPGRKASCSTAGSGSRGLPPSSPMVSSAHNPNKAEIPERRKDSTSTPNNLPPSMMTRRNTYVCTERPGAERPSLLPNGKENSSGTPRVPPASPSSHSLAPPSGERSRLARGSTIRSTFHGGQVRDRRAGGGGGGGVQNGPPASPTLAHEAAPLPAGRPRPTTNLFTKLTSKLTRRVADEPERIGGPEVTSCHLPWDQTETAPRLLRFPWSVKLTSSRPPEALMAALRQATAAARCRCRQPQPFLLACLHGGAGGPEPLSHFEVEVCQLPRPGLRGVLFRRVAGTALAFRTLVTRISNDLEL
Sequence of UniProt P49761 (whole entry, looked up): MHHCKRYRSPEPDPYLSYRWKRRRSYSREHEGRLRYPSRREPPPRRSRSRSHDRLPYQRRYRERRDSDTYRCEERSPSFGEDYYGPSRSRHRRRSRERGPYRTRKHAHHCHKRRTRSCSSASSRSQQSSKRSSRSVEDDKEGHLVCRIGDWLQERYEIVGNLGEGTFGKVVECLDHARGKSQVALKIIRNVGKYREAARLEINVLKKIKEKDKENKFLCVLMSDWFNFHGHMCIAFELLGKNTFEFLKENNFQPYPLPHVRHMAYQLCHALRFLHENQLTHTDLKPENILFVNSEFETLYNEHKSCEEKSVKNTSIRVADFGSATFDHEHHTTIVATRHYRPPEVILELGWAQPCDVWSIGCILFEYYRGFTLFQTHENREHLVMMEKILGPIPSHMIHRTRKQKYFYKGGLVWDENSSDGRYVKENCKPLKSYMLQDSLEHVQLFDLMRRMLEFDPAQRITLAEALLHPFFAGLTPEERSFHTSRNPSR
Sequence of UniProt Q9H4B4 (whole entry, looked up): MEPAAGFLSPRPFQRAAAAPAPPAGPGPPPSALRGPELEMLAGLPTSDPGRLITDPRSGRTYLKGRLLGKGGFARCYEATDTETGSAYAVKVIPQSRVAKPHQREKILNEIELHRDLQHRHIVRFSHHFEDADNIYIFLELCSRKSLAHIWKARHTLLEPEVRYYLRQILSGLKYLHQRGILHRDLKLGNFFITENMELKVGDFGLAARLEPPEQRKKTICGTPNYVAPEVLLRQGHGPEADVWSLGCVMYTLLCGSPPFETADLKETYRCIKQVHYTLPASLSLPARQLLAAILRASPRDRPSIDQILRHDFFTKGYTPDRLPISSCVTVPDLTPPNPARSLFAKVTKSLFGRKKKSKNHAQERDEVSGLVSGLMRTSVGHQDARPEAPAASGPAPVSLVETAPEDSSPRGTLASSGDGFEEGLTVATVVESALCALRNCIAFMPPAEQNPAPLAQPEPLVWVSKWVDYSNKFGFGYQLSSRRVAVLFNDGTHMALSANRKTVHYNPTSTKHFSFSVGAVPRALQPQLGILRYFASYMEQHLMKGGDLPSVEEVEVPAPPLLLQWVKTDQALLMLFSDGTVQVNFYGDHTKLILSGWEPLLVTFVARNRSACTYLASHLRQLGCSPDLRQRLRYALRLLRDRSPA
Sequence of UniProt Q6P2M8 (whole entry, looked up): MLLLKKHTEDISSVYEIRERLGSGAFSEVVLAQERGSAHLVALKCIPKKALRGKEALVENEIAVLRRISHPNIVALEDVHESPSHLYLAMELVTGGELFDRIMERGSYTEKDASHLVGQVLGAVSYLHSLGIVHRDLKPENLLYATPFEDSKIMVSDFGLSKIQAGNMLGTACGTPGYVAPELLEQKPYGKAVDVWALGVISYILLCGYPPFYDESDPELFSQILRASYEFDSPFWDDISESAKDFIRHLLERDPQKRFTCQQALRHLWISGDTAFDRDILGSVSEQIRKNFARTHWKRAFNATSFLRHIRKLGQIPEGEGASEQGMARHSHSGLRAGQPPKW

Block 1 — Structure (SMILES): FC(F)(F)c1ccc2c(c1)nc(-c1cccnc1)n2C1CC1; observed: cell-free assay; concentration: 10 µM; endpoint: inhibition
target = HRH3 (Homo sapiens, UniProt Q9Y5N1); value = -17.6%
target = HTR7 (Homo sapiens, UniProt P34969); value = 0.88%
target = ADRA1A (Homo sapiens, UniProt P35348); value = -12.8%
target = DRD1 (Homo sapiens, UniProt P21728); value = -3.97%
target = CHRM5 (Homo sapiens, UniProt P08912); value = -6.15%
target = ADRA1D (Homo sapiens, UniProt P25100); value = -22.1%
target = ADRA2A (Homo sapiens, UniProt P08913); value = 6.92%
target = ADRA2C (Homo sapiens, UniProt P18825); value = 13.3%

Block 2 — observed: RNA clamping; method: fluorescence polarization; concentration: concentration not given; setting: mean of two replicates; added: FAM-labelled poly r(AG)8 RNA; endpoint: fluorescence polarization change
Target: Eukaryotic initiation factor 4A-I (EIF4A1, Homo sapiens, UniProt P60842)
Sequence of UniProt P60842 (whole entry, looked up): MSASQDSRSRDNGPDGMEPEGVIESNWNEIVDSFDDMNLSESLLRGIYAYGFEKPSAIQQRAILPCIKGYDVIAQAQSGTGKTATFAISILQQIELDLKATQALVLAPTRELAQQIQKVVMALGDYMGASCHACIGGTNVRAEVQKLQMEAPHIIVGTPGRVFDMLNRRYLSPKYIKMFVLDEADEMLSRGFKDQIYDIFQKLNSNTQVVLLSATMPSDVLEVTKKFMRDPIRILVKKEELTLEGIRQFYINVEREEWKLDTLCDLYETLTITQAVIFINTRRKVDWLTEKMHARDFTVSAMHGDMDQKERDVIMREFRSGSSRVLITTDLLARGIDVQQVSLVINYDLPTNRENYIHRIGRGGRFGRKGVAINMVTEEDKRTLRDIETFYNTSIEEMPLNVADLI
SMILES = COC(=O)[C@@H]1[C@@H](c2ccccc2)[C@]2(c3ccc(OC)cc3)Oc3cc(OC)cc(OC)c3[C@@]23OC(c2cccc(OC)c2)=N[C@@]13O; value = 2.6 mP
SMILES = COc1cc(OC)c2c(c1)O[C@@]1(c3ccc(OC)c(O)c3)[C@H](c3ccccc3)[C@@H](C(=O)c3ccco3)[C@@H](O)[C@@]21O; value = 9.1 mP
SMILES = C=CCOc1nc(-c2ccccc2)nc2c1[C@@H](c1ccccc1)[C@]1(c3ccc(OC)cc3)Oc3cc(OC)cc(OC)c3[C@]21O; value = 0.7 mP
SMILES = COc1ccc([C@]23[C@H](c4ccccc4)C[C@@H](O)[C@@]2(O)c2c(OC)cccc2N3C)cc1; value = 3.5 mP
SMILES = COc1ccc([C@@]23Oc4cc(OC)cc(OC)c4[C@@](O)(C2=O)[C@H](c2ccccc2)[C@H]3c2ccccc2)cc1; value = 8 mP
SMILES = C#CCCC1(CCOc2ccc([C@@H]3[C@@H](C(=O)N(C)OC)[C@@H](O)[C@@]4(O)c5c(OC)cc(OC)cc5O[C@@]34c3ccc(OC)cc3)cc2)N=N1; value = 2.1 mP

Block 3 — endpoint: inhibition
SMILES: COc1cc(C(=O)N2CCC(N3CCN(C)CC3)CC2)ccc1Nc1ncc2c(n1)N(C)c1ccccc1C(=O)N2C
target or system = SRPK1/SRPK2 (mouse); test = probe labelling, inhibitor, KiNativ ActivX ATP probe; system = mouse brain lysate; conditions = 0.1 µM; value = 37.4%
target or system = p70S6K human; test = KiNativ profiling; system = human PBMC lysate; conditions = concentration not given, ATP probe, ATP loop site; value = 8.9%
target or system = PIK3CB human; test = KiNativ profiling; system = human PBMC; conditions = 0.1 µM, ATP site, added: ATP acyl phosphate probe; value = 4.4%
target or system = NDR2 (mouse); test = probe labelling, KiNativ ATP probe; system = mouse brain lysate; conditions = 0.1 µM, LYS1 labelled site; value = 6.3%
test = probe labelling, KiNativ profiling, item: TSTQEYAAkIINTK peptide; system = human PBMC lysate; conditions = concentration not given, Lys1 site, added: ADP acyl phosphate probe; value = 16.7%
target or system = mouse mTOR; test = probe labelling, KiNativ ATP probe; system = mouse brain lysate; conditions = 0.1 µM, ATP site; value = 1%
target or system = mouse CK1δ and CK1ε; test = probe labelling, KiNativ ATP probe; system = mouse brain lysate; conditions = 1 µM, LYS2 site; value = 33.6%
target or system = BARK1 and BARK2 mouse; test = KiNativ profiling; system = mouse brain lysate; conditions = 1 µM, LYS1 site, added: ADP acyl phosphate probe; value = 13.9%
target or system = PIP4K2C (mouse); test = KiNativ ATP probe; system = mouse brain tissue; conditions = 1 µM, ATP site probe; value = 4.9%
target or system = CASK (mouse); test = probe labelling, KiNativ ATP probe; system = mouse brain lysate; conditions = 1 µM, LYS1 labelled site; value = 18.5%
target or system = mouse NUAK1; test = probe labelling, KiNativ ADP probe; system = mouse brain lysate; conditions = 1 µM; value = 0.9%
target or system = mouse PCTAIRE1/2/3; test = probe labelling, KiNativ ATP probe; system = mouse brain lysate; conditions = 1 µM, LYS2 site DLkPQNLLINER; value = -14.5%
target or system = BTK human; test = KiNativ profiling; system = human PBMC; conditions = concentration not given, activation loop site, added: ATP acyl phosphate probe; value = 4.3%
target or system = BRAF (mouse); test = probe labelling, KiNativ ADP probe; system = mouse brain lysate; conditions = 1 µM, LYS2 labelled site; value = 3.5%
target or system = mouse PKCι and PKCζ; test = probe labelling, KiNativ ADP probe; system = mouse brain lysate; conditions = 0.1 µM, LYS1 site IYAMkVVK; value = 4.9%

Block 4 — observed: enzyme activity; action: inhibitor; concentration: 0.5 µM; relative to: control; endpoint: remaining activity
SMILES: COc1ccc2c(c1)c(C1=C(c3c[nH]c4ccccc34)C(=O)NC1=O)cn2CCCN(C)C
target = CLK4 (Homo sapiens, UniProt Q9HAZ1); value = 32.8%
target = CDC42BPB (Homo sapiens, UniProt Q9Y5S2); value = 89.4%
target = CLK3 (Homo sapiens, UniProt P49761); value = 43.6%
target = CAMK4 (Homo sapiens, UniProt Q16566); value = 90.3%
target = PLK3 (Homo sapiens, UniProt Q9H4B4); value = 93%
target = PAK3 (Homo sapiens, UniProt O75914); value = 105%
target = MAPK14 (Homo sapiens, UniProt Q16539); value = 103%
target = AKT2 (Homo sapiens, UniProt P31751); value = 110%
target = MAPK1 (Homo sapiens, UniProt P28482); value = 102%
target = MARK4 (Homo sapiens, UniProt Q96L34); value = 95.9%
target = RPS6KA4 (Homo sapiens, UniProt O75676); value = 78.6%
target = PNCK (Homo sapiens, UniProt Q6P2M8); value = 103%
target = ROCK1 (Homo sapiens, UniProt Q13464); value = 93.5%
target = MINK1 (Homo sapiens, UniProt Q8N4C8); value = 78.6%
